Measured values of several laboratories.
Protocols differ between the studies behind these lines.
Organism: Pseudomonas aeruginosa

| Compound | assay | system | conditions | MIC |
| --- | --- | --- | --- | --- |
| CC[C@H](C)[C@H](NC(=O)[C@H](C)NC(=O)[C@@H](NC(=O)[C@H](CC(=O)O)NC(=O)[C@H](CCCCN)NC(=O)[C@H](CO)NC(=O)[C@@H](NC(=O)[C@H](CC(N)=O)NC(=O)[C@H](C)NC(=O)[C@@H](NC(=O)[C@H](CCC(=O)O)NC(=O)[C@H](CCCCN)NC(=O)[C@@H](NC(=O)[C@@H](NC(=O)[C@H](Cc1c[nH]cn1)NC(=O)[C@H](CCCCN)NC(=O)[C@@H](NC(=O)[C@H](CCCCN)NC(=O)[C@H](CCCCN)NC(=O)[C@@H](NC(=O)[C@H](CC(C)C)NC(=O)[C@H](CCCCN)NC(=O)[C@H](CC(N)=O)NC(=O)[C@H](Cc1ccccc1)NC(=O)[C@H](CCCNC(=N)N)NC(=O)[C@H](CCCCN)NC(=O)[C@H](CCCNC(=N)N)NC(=O)[C@H](Cc1ccccc1)NC(=O)CN)C(C)C)C(C)C)[C@@H](C)O)[C@@H](C)CC)[C@@H](C)O)C(C)C)C(C)C)C(=O)N[C@H](C(=O)N[C@@H](C)C(=O)NCC(=O)N[C@@H](CO)C(=O)NCC(=O)N[C@H](C(=O)N[C@@H](C)C(=O)N[C@H](C(=O)NCC(=O)N[C@@H](C)C(=O)N[C@@H](C)C(=O)N[C@@H](CCSC)C(N)=O)C(C)C)C(C)C)C(C)C | broth microdilution | RKI 93/12, CAMHB with 10% mouse serum | – | 16 µg/mL |
| CC(C)C[C@H](NC(=O)[C@H](CCCCN)NC(=O)[C@H](CC(C)C)NC(=O)[C@H](CCCCN)NC(=O)C1CCCC=CCCC(NC(=O)[C@H](CCCCN)NC(=O)[C@H](CC(C)C)NC(=O)[C@H](CCCCN)NC(=O)[C@@H](N)CC(C)C)C(=O)N[C@@H](CCCCN)C(=O)N2CCC[C@@H]2C(=O)NCC(=O)N[C@@H](CCCCN)C(=O)N1)C(N)=O (stereo partly shown) | broth microdilution | ATCC 9027, Mueller-Hinton broth | 18 h, 37 °C | 8 µM |
| CN[C@H](CC(C)C)C(=O)N[C@H]1C(=O)N[C@@H](CC(N)=O)C(=O)N[C@H]2C(=O)N[C@H]3C(=O)N[C@H](C(=O)N[C@H](C(=O)N[C@@H](CCCNC(=N)N)C(N)=O)c4cc(O)cc(O)c4-c4cc3ccc4O)[C@H](O)c3ccc(c(Cl)c3)Oc3cc2cc(c3O[C@@H]2O[C@H](CO)[C@@H](O)[C@H](O)[C@H]2O[C@H]2C[C@](C)(NCc3ccc(OCc4cn(CC(=O)N[C@H](C(=O)N[C@@H](CCN)C(=O)N[C@H]5CCNC(=O)[C@H]([C@@H](C)O)NC(=O)[C@H](CCN)NC(=O)[C@H](CCN)NC(=O)[C@H](CC(C)C)NC(=O)[C@@H](CC(C)C)NC(=O)[C@H](CCN)NC5=O)[C@@H](C)O)nn4)c(OC)c3)[C@H](O)[C@H](C)O2)Oc2ccc(cc2Cl)[C@H]1O | broth microdilution | ATCC 27853, cation-adjusted Mueller-Hinton broth | – | 6 µM |
| CC[C@H](C)[C@@H]1NC(=O)[C@@H]2CCCN2C(=O)[C@H](C)NC(=O)[C@H](CC(C)C)NC(=O)[C@@H]2CCCN2C(=O)[C@H](C)NC(=O)[C@@H]2CSSC[C@H](NC(=O)[C@H](C)NC(=O)[C@H](C)NC(=O)[C@H](Cc3ccc(O)cc3)NC(=O)[C@@H]3CCCN3C(=O)CNC(=O)[C@H](Cc3c[nH]c4ccccc34)NC1=O)C(=O)N[C@@H](CC(C)C)C(=O)N[C@@H](CO)C(=O)N[C@@H](C)C(=O)N[C@H]1CSSC[C@H](NC(=O)[C@H](C(C)C)NC(=O)[C@@H]3CCCN3C(=O)CNC(=O)CNC(=O)CNC(=O)[C@H](C)NC(=O)[C@H](C)NC(=O)[C@H](CC(C)C)NC1=O)C(=O)N[C@@H](CC(C)C)C(=O)N[C@@H](C)C(=O)N[C@@H](C(C)C)C(=O)N2 | – | ATCC 27853 | – | > 128 µg/mL |
| CC(C)C[C@H](NC(=O)[C@H](CC(C)C)NC(=O)[C@H](CCCCN)NC(=O)[C@H](Cc1ccccc1)NC(=O)[C@@H](NC(=O)[C@H](CCCNC(=N)N)NC(=O)[C@H](CCCCN)NC(=O)[C@H](Cc1c[nH]c2ccccc12)NC(=O)[C@@H](NC(=O)[C@@H](N)CCCNC(=N)N)C(C)C)C(C)C)C(=O)N[C@@H](CCCCN)C(=O)N[C@@H](CCCNC(=N)N)C(=O)N[C@@H](Cc1ccc(O)cc1)C(=O)N[C@@H](Cc1c[nH]c2ccccc12)C(=O)N[C@@H](CCCNC(=N)N)C(N)=O | broth microdilution | 01 | – | 7.5 µg/mL |
| CC[C@H](C)[C@H](NC(=O)[C@@H](CCCNC(=N)N)NC(=O)[C@H](CCCNC(=N)N)NC(=O)[C@H](CC(C)C)NC(=O)[C@H](Cc1c[nH]c2ccccc12)NC(=O)[C@H](CCCNC(=N)N)NC(=O)[C@@H]1CCCN1C(=O)[C@H](CCCNC(=N)N)NC(=O)[C@@H]1CCCN1C(=O)[C@H](CC(C)C)NC(=O)[C@H](Cc1ccc(O)cc1)NC(=O)[C@@H]1CCCN1C(=O)[C@@H]1CCCN1C(=O)[C@H](CCCCN)NC(=O)[C@H](CC(=O)O)NC(=O)[C@@H](N)C(C)C)C(=O)N[C@@H](Cc1ccc(O)cc1)C(=O)N[C@@H](CC(N)=O)C(=O)N[C@H](CCCNC(=N)N)C(N)=O | broth microdilution | DSM 1117 | 18 h, 37 °C, 25% MHB2 | 128 µg/mL |
| CC(C)C[C@@H]1NC(=O)[C@@H](CC(C)C)NC(=O)[C@H](CCN)NC(=O)[C@@H](NC(=O)[C@H](CCN)NC(=O)[C@@H](NC(=O)CN=[N+]=[N-])[C@@H](C)O)CCNC(=O)[C@H]([C@@H](C)O)NC(=O)[C@H](CCN)NC(=O)[C@H](CCN)NC1=O | broth microdilution | ATCC 10145, cation-adjusted Mueller-Hinton broth | – | 8 µM |
| CC[C@H](C)[C@H](NC(=O)[C@@H](CCCNC(=N)N)NC(=O)[C@H](CCCNC(=N)N)NC(=O)[C@@H](NC(=O)[C@H](Cc1c[nH]c2ccccc12)NC(=O)[C@H](CCCNC(=N)N)NC(=O)[C@@H]1CCCN1C(=O)[C@H](CCCNC(=N)N)NC(=O)[C@@H]1CCCN1C(=O)[C@H](CC(C)C)NC(=O)[C@H](Cc1ccc(O)cc1)NC(=O)[C@@H]1CCCN1C(=O)[C@@H]1CCCN1C(=O)[C@H](CCCCN)NC(=O)[C@H](CC(=O)O)NC(=O)[C@@H](N)C(C)C)[C@@H](C)O)C(=O)N[C@@H](Cc1ccc(O)cc1)C(=O)N[C@@H](CC(N)=O)C(=O)N[C@H](CCCNC(=N)N)C(N)=O | broth microdilution | DSM 1117 | 18 h, 37 °C, 25% MHB2 | > 128 µg/mL |
| CC(C)C[C@@H]1NC(=O)[C@@H](CC(C)C)NC(=O)[C@H](CCN)NC(=O)[C@@H](NC(=O)[C@H](CCN)NC(=O)[C@@H](NC(=O)CCOCCOCCOCCN=[N+]=[N-])[C@@H](C)O)CCNC(=O)[C@H]([C@@H](C)O)NC(=O)[C@H](CCN)NC(=O)[C@H](CCN)NC1=O | broth microdilution | ATCC 10145, cation-adjusted Mueller-Hinton broth | – | 14 µM |
| CC(=O)N[C@H](Cc1ccc(C(F)(F)F)cc1)C(=O)N[C@@H](CCN)C(=O)N[C@H](C(=O)N[C@@H](CCN)C(=O)N[C@H]1CCNC(=O)[C@H]([C@@H](C)O)NC(=O)[C@H](CCN)NC(=O)[C@H](CCN)NC(=O)[C@H](CC(C)C)NC(=O)[C@@H](Cc2ccccc2)NC(=O)[C@H](CCN)NC1=O)[C@@H](C)O | broth microdilution | colistin-resistant isolates | – | 32 to 64 µg/mL |

Repeated from above:
| Compound | assay | system | conditions | MIC |
| --- | --- | --- | --- | --- |
| CC[C@H](C)[C@@H]1NC(=O)[C@@H]2CCCN2C(=O)[C@H](C)NC(=O)[C@H](CC(C)C)NC(=O)[C@@H]2CCCN2C(=O)[C@H](C)NC(=O)[C@@H]2CSSC[C@H](NC(=O)[C@H](C)NC(=O)[C@H](C)NC(=O)[C@H](Cc3ccc(O)cc3)NC(=O)[C@@H]3CCCN3C(=O)CNC(=O)[C@H](Cc3c[nH]c4ccccc34)NC1=O)C(=O)N[C@@H](CC(C)C)C(=O)N[C@@H](CO)C(=O)N[C@@H](C)C(=O)N[C@H]1CSSC[C@H](NC(=O)[C@H](C(C)C)NC(=O)[C@@H]3CCCN3C(=O)CNC(=O)CNC(=O)CNC(=O)[C@H](C)NC(=O)[C@H](C)NC(=O)[C@H](CC(C)C)NC1=O)C(=O)N[C@@H](CC(C)C)C(=O)N[C@@H](C)C(=O)N[C@@H](C(C)C)C(=O)N2 | – | ATCC 27853 | – | > 128 µg/mL |
